Measurements from different studies.
Protocols differ between the studies behind these lines. Values joined by “and” are separate records of one study, mostly repeats; a detail may differ. ± gives the spread as reported.

CC(C)C[C@@H]1NC(=O)[C@@H](Cc2ccccc2)NC(=O)[C@H](CCN)NC(=O)[C@@H](NC(=O)[C@H](CN)NC(=O)[C@@H](NC(=O)CC(CN)Cc2ccccc2)[C@@H](C)O)CCNC(=O)[C@H]([C@@H](C)O)NC(=O)[C@H](CCN)NC(=O)[C@H](CCN)NC1=O (some centres unmarked)
urinary albumin excretion (ELISA; male CD-1 mouse, urine; subcutaneous, 25 mg/kg, 4 doses every 8 h, 24 h urine collection, nephrotoxicity): 749 µg/24 h

CC(=CCC(O)C(C)=Cc1csc(C)n1)CC=CC(C)C(O)C(C)C(=O)C(C)(C)C(O)CC(=O)O (centres unmarked)
AUC ratio (human, plasma; intravenous infusion, 48 mg/m2 KOS-1584, 3 h infusion, cycle 1; baseline: metabolite over KOS-1584): 9.16 ± 0.84%

COC(=O)C[C@](O)(CCCC(C)(C)OC(C)=O)C(=O)O[C@@H]1C(OC)=C[C@]23CCCN2CCc2cc4c(cc2[C@H]13)OCO4
tissue concentration (CD1 mouse, lung; subcutaneous, 1 mg/kg, 24 h, below quantification limit 1.00 ng/mL): not detected

COc1ccc([C@@H]2N=NC(NCCc3c[nH]c4ccc(C)cc34)=NC2=O)cc1
permeability (Pe) (porcine brain lipid; 100 µg/mL, 18 h, pH 7.4): 4.69 ± 0.2 ×10⁻⁶ cm/s

O=C([O-])C[N+]12CC(=O)[O][Re-2]1[O]P(=O)([O-])C2.[C-]#[O+].[C-]#[O+].[C-]#[O+] (centres unmarked)
isomer fraction at equilibrium (HPLC; aqueous solution; 1 d, pH 3, room temperature): 10%

CC[C@H](C)[C@H](NC(=O)[C@H](CCCCN)NC(=O)CNC(=O)[C@H](CC(C)C)NC(=O)[C@@H](NC(=O)[C@H](C)NC(=O)[C@H](CCCCN)NC(=O)CNC(=O)[C@H](C)NC(=O)CNC(=O)[C@H](CCCCN)NC(=O)[C@H](CCSC)NC(=O)[C@H](CCCCN)NC(=O)[C@@H](NC(=O)[C@H](Cc1c[nH]c2ccccc12)NC(=O)[C@H](CC(C)C)NC(=O)[C@H](CCCCN)NC(=O)[C@H](CCCCN)NC(=O)[C@H](CC(C)C)NC(=O)[C@@H](N)CC(C)C)[C@@H](C)O)C(C)C)C(=O)N[C@@H](CCCCN)C(=O)NCC(=O)N[C@@H](CC(C)C)C(=O)N[C@@H](CC(C)C)C(=O)O
Stern-Volmer constant (acrylamide quenching; DOPC:DOPG 3:1 vesicles; 2 µM, 250 µM total lipid, added: acrylamide): 1.07 ± 0.07 M⁻¹

O=C(O)CCC(NP(=O)(O)OCCC[C@@H](NC(=O)CCC(NC(=O)CCCCCNC(=O)CCCCCNC(=O)c1ccc([18F])cc1)C(=O)O)C(=O)O)C(=O)O (some centres unmarked)
tumour to blood ratio (radioactivity; mouse, CWR22Rv1 xenograft; 1 h; baseline: tumour over blood): 24 and 24.2

CC(C)[C@H]1NC(=O)C[C@H]2/C=C/CCSSC[C@@H](NC1=O)C(=O)N[C@H](Cc1cccc3ccccc13)C(=O)NCC(=O)O2
AUC(0-t) (BALB/cAJcl-nu/nu mice, blood; oral, 24 mg/kg): 0.272 to 2.22 ng·h/mL

CC(C)[C@H](NC(=O)CNC(=O)[C@H](CCC(N)=O)NC(=O)[C@H](C)N)C(=O)O
subjects with any adverse event (human; intravenous infusion, 90 mg/kg/h, 2 h infusion): 66.7%

CCC[C@@H]1O[C@@H]2C[C@H]3[C@@H]4C[C@H](F)C5=CC(=O)CC[C@]5(C)[C@@]4(F)[C@@H](O)C[C@]3(C)[C@]2(C(=O)CO)O1
bioavailability (CD1 mice, plasma; subcutaneous, 0.2 mg/kg): 48%

CSCC[C@@H]1NC(=O)[C@@H]2CSSC[C@H](NC(=O)[C@H](CO)NC(=O)[C@H](C)N)C(=O)N[C@@H](CCCNC(=N)N)C(=O)N[C@@H]([C@@H](C)O)C(=O)N3CCC[C@H]3C(=O)N[C@@H](CCCCN)C(=O)N[C@@H](CC(=O)O)C(=O)N[C@H]3CSSC[C@H](NC(=O)[C@H](CCCCN)NC(=O)[C@H](CCCNC(=N)N)NC(=O)[C@H](CC(N)=O)NC1=O)C(=O)N[C@@H](CCCCN)C(=O)N[C@H]1CSSC[C@H](NC(=O)[C@@H]4CCCN4C(=O)[C@H](CC(=O)O)NC(=O)[C@H](C)NC3=O)C(=O)N[C@@H](C)C(=O)N[C@@H](CCCCN)C(=O)N[C@@H](CCC(=O)O)C(=O)N[C@@H]([C@@H](C)O)C(=O)NCC(=O)N[C@@H](CSSC[C@@H](C(N)=O)NC(=O)[C@H](CCCNC(=N)N)NC(=O)[C@H](CC(N)=O)NC1=O)C(=O)N1CCC[C@H]1C(=O)N[C@@H](Cc1ccc(O)cc1)C(=O)NCC(=O)N[C@@H](CCCCN)C(=O)N2
creatine kinase (DA rat, pristane-induced arthritis, serum; subcutaneous, single 0.1 mg/kg at onset, end of 21-day trial): 443 U/L

COc1ccc(NC(=O)Cn2c(=O)c3ccccc3n(CC(=O)Nc3cc([125I])c(OC)cc3OC)c2=O)cc1
tracer uptake (rat, lung; intravenous, 30 min): 0.22 %ID/g

CC[C@H](C)C(=O)N1CCC(NC(=O)Nc2ccc(OC(F)(F)F)c(F)c2)CC1
subjects with any TEAE (healthy volunteers; oral, 8 mg single dose, 14 (unit not given)): 33.3%

CC[C@H](C)[C@H](NC(=O)[C@H](CCCCN)NC(=O)[C@H](Cc1ccccc1)NC(=O)[C@H]1CCC[C@@H]1NC(=O)[C@@H](N)CCCCN)C(=O)N[C@@H](C)CC(=O)N[C@@H](CCCCN)C(=O)N[C@@H](CCCCN)C(=O)N[C@H]1CCC[C@@H]1C(=O)N[C@H](C(=O)N[C@@H](CCCCN)C(=O)N[C@H](C(=O)N[C@H](CC(N)=O)Cc1ccccc1)[C@@H](C)O)C(C)C
helical rigidity (circular dichroism; trifluoroethanol in water; baseline: 15% TFE over 100% TFE): 24 ± 4%

C[C@@H]1CC[C@H]2[C@@H](C)CO[C@@H]3O[C@@]4(C)CC[C@@H]1[C@]32OO4
Vd (LC-MS/MS; Sprague-Dawley rat, male, plasma; intravenous, 5 mg/kg): 5.38 ± 0.642 L/kg

O=c1cc(-c2ccccc2)oc2c(Br)c(O)c(O)c(O)c12
AUC(0-t) (C57BL/6 mouse, plasma; oral, 50 mg/kg, single dose): 1060 ng·h/mL

CSCC[C@H](NC(=O)[C@H](CO)NC(=O)[C@H](Cc1ccc(O)cc1)NC(=O)[C@@H](N)CO)C(=O)N[C@@H](CCC(=O)O)C(=O)N[C@@H](Cc1c[nH]cn1)C(=O)N[C@@H](Cc1ccccc1)C(=O)N[C@@H](CCCNC(=N)N)C(=O)N[C@@H](Cc1c[nH]c2ccccc12)C(=O)NCC(=O)N[C@@H](CCCCN)C(=O)N1CCC[C@H]1C(=O)N[C@H](C(=O)NCC(=O)N[C@@H](CCCCN)C(=O)N[C@@H](CCCCN)C(=O)N[C@@H](CCCNC(=N)N)C(=O)N[C@@H](CCCNC(=N)N)C(=O)N1CCC[C@H]1C(=O)N[C@H](C(=O)N[C@@H](CCCCN)C(=O)N[C@H](C(=O)N[C@@H](Cc1ccc(O)cc1)C(=O)N1CCC[C@H]1C(=O)N[C@@H](CC(=O)O)C(=O)NCC(=O)N[C@@H](C)C(=O)N[C@@H](CCC(=O)O)C(=O)N[C@@H](CC(=O)O)C(=O)N[C@@H](CCC(=O)O)C(=O)N[C@@H](CC(C)C)C(=O)N[C@@H](C)C(=O)N[C@@H](CCC(=O)O)C(=O)N[C@@H](C)C(=O)N[C@@H](Cc1ccccc1)C(=O)N1CCC[C@H]1C(=O)N[C@@H](CC(C)C)C(=O)N[C@@H](CCC(=O)O)C(=O)N[C@@H](Cc1ccccc1)C(=O)O)C(C)C)C(C)C)C(C)C
AUC(0-last) (healthy human subjects, plasma; subcutaneous, 80 IU twice weekly, day 1, repository corticotropin injection): 0.664 ng·h/mL

COC1CC(OC2CCC3(C)C(CCC45OC46CCC(C(C)=O)C6(C)C(OC(C)=O)C(OC(=O)c4ccccc4)C35)C2)OC(C)C1OC1OC(C)C(O)C(OC)C1O (centres unmarked)
Papp B→A (Caco-2; 10 µM): 10.7 ×10⁻⁶ cm/s

CC(C)C[C@H](NC(=O)[C@H](CCCCN)NC(=O)[C@H](CCC(=O)O)NC(=O)[C@H](C)NC(=O)[C@@H](NC(=O)[C@H](CCCCN)NC(=O)[C@H](CC(=O)O)NC(=O)[C@H](Cc1ccc(O)cc1)NC(=O)[C@H](Cc1ccccc1)NC(=O)[C@H](C)NC(=O)[C@H](CCCCN)NC(=O)[C@H](CC(C)C)NC(=O)[C@H](Cc1c[nH]c2ccccc12)NC(=O)[C@@H](N)CC(=O)O)C(C)C)C(=O)N[C@@H](CCCCN)C(=O)N[C@@H](CCC(=O)O)C(=O)N[C@@H](C)C(=O)N[C@@H](Cc1ccccc1)C(=O)N1CCC[C@H]1C(=O)N[C@@H](CC(=O)O)C(=O)N[C@@H](Cc1c[nH]c2ccccc12)C(=O)N[C@@H](C)C(=O)N[C@@H](CCCCN)C(=O)N[C@@H](C)C(=O)N[C@@H](C)C(=O)N[C@@H](Cc1ccc(O)cc1)C(=O)N[C@@H](CC(=O)O)C(=O)N[C@@H](CCCCN)C(=O)N[C@@H](C)C(=O)N[C@@H](C)C(=O)N[C@@H](CCC(=O)O)C(=O)N[C@@H](CCCCN)C(=O)N[C@@H](C)C(=O)N[C@@H](CCCCN)C(=O)N[C@@H](CCC(=O)O)C(=O)N[C@@H](C)C(=O)N[C@@H](C)C(=O)O
Cmax (cynomolgus monkey female, plasma; intravenous infusion, 8 mg/kg, day 1, 30 min infusion): 125 µg/mL

CN[C@](C)(C[18F])C(=O)O
tracer uptake (mouse, bone; 1 h, tumour-bearing): 1.9 %ID/g

CSCC[C@H](NC(=O)CNC(=O)[C@H](CC(=O)O)NC(=O)[C@@H](NC(=O)[C@@H](NC(=O)[C@@H](NC(=O)CNC(=O)[C@H](CCC(N)=O)NC(=O)[C@H](CCSC)NC(=O)[C@H](CC(=O)O)NC(=O)[C@H](C)NC(=O)[C@H](C)NC(=O)[C@@H](NC(=O)[C@H](CO)NC(=O)[C@@H](N)CC(C)C)[C@@H](C)O)C(C)C)C(C)C)[C@@H](C)O)C(=O)N[C@@H](C)C(=O)N[C@@H](CO)C(=O)NCC(=O)N[C@@H](CC(C)C)C(=O)N[C@@H](CC(=O)O)C(=O)N[C@@H](CCCCN)C(=O)N[C@@H](CC(=O)O)C(=O)N[C@@H](Cc1ccc(O)cc1)C(=O)N[C@@H](CC(C)C)C(=O)N[C@@H](CCCCN)C(=O)N1CCC[C@H]1C(=O)N[C@@H](CC(=O)O)C(=O)N[C@@H](CC(=O)O)C(=O)O
Cmax (human, serum; intravenous, 1.66 mg/kg, patients, infusion): 6.99 µg/mL

CC[C@H](C)[C@H](NC(=O)CNC(=O)[C@@H](NC(=O)[C@H](Cc1ccc(O)cc1)NC(=O)[C@@H](NC(=O)[C@H](CO)NC(=O)[C@@H](NC(=O)[C@H](C)NC(=O)[C@@H]1CCCN1C(=O)[C@@H](NC(=O)[C@H](Cc1ccccc1)NC(=O)[C@H](CCCCN)NC(=O)[C@H](CCC(=O)O)NC(=O)[C@H](Cc1ccc(O)cc1)NC(=O)[C@H](CC(C)C)NC(=O)[C@H](CC(=O)O)NC(=O)[C@H](CCCNC(=N)N)NC(=O)[C@H](CC(C)C)NC(=O)[C@H](CCCCN)NC(=O)[C@H](CCC(=O)O)NC(=O)[C@H](Cc1ccccc1)NC(=O)[C@@H](NC(=O)[C@H](CCC(=O)O)NC(=O)[C@H](CCCCN)NC(=O)[C@H](CC(C)C)NC(=O)[C@H](Cc1ccc(O)cc1)NC(=O)[C@@H](N)CC(=O)O)C(C)C)[C@@H](C)O)C(C)C)[C@@H](C)O)[C@@H](C)O)C(=O)N[C@@H](Cc1ccccc1)C(=O)N[C@H](C(=O)N[C@@H](CC(=O)O)C(=O)N[C@@H](CCC(N)=O)C(=O)N[C@H](C(=O)N[C@@H](CC(C)C)C(=O)N[C@@H](CO)C(=O)N[C@H](C(=O)N[C@@H](CC(C)C)C(=O)N[C@@H](CCCCN)C(=O)NCC(=O)N[C@@H](CCC(=O)O)C(=O)N[C@@H](CCC(=O)O)C(=O)O)C(C)C)C(C)C)[C@@H](C)O
terminal half-life (C57BL/6 mice, female, plasma; intravenous, dose not given): 9 h

C/C=C/C=C/C/C=C/CCCCCCCc1cccc(O)c1O
tissue concentration (female Kunming mice, tumour-bearing, heart; intravenous, 10 mg/kg, 12 h): 1810 ± 150 ng/g

A few entries again:
CCC[C@@H]1O[C@@H]2C[C@H]3[C@@H]4C[C@H](F)C5=CC(=O)CC[C@]5(C)[C@@]4(F)[C@@H](O)C[C@]3(C)[C@]2(C(=O)CO)O1
bioavailability (CD1 mice, plasma; subcutaneous, 0.2 mg/kg): 48%

CSCC[C@@H]1NC(=O)[C@@H]2CSSC[C@H](NC(=O)[C@H](CO)NC(=O)[C@H](C)N)C(=O)N[C@@H](CCCNC(=N)N)C(=O)N[C@@H]([C@@H](C)O)C(=O)N3CCC[C@H]3C(=O)N[C@@H](CCCCN)C(=O)N[C@@H](CC(=O)O)C(=O)N[C@H]3CSSC[C@H](NC(=O)[C@H](CCCCN)NC(=O)[C@H](CCCNC(=N)N)NC(=O)[C@H](CC(N)=O)NC1=O)C(=O)N[C@@H](CCCCN)C(=O)N[C@H]1CSSC[C@H](NC(=O)[C@@H]4CCCN4C(=O)[C@H](CC(=O)O)NC(=O)[C@H](C)NC3=O)C(=O)N[C@@H](C)C(=O)N[C@@H](CCCCN)C(=O)N[C@@H](CCC(=O)O)C(=O)N[C@@H]([C@@H](C)O)C(=O)NCC(=O)N[C@@H](CSSC[C@@H](C(N)=O)NC(=O)[C@H](CCCNC(=N)N)NC(=O)[C@H](CC(N)=O)NC1=O)C(=O)N1CCC[C@H]1C(=O)N[C@@H](Cc1ccc(O)cc1)C(=O)NCC(=O)N[C@@H](CCCCN)C(=O)N2
creatine kinase (DA rat, pristane-induced arthritis, serum; subcutaneous, single 0.1 mg/kg at onset, end of 21-day trial): 443 U/L

COc1ccc(NC(=O)Cn2c(=O)c3ccccc3n(CC(=O)Nc3cc([125I])c(OC)cc3OC)c2=O)cc1
tracer uptake (rat, lung; intravenous, 30 min): 0.22 %ID/g
